Results gathered from unrelated publications.
Every numbered part comes from another study and shows a few of its results, in no order. Substitutions count along the parent as printed.

Sample 1 — method: RNA Bind-n-Seq; molecule type: RNA; medium: in vitro; concentration: not given; baseline: input RNA pool; reading: higher = stronger binding; endpoint: bound/input enrichment
Target: RING finger protein unkempt homolog, zinc fingers 1-6, GST-SBP tag (UNK, Homo sapiens, UniProt Q9C0B0, residues 30-357)
Chain of UniProt Q9C0B0 (30-357, looked up): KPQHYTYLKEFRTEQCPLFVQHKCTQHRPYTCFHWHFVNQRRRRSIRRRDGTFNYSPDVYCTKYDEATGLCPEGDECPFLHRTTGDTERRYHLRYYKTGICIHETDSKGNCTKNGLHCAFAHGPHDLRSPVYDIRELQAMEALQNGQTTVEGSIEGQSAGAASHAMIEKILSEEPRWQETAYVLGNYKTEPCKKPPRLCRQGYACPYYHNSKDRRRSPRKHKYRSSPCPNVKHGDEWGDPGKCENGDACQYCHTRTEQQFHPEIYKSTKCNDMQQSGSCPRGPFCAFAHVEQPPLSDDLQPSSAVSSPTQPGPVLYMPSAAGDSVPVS
Notes: RNA with constant flanks, human-mouse chimeric sites, ends assumed
Constant ends, left off below: GGGAGUUCUACAGUCCGACGAUC … CAACAGAGGAUUGAGCAUCA
CGCUUGGAUGAGGCGGGUGUUACUGAUGAAGUGCUGGAUUCUGCCAUGCAAGCCUUCCUUCUGGAGGUCAUUGUUAAACAUGGGGAGCCGGCACCUUAUUUAUGUAACAAAGAUCCGUUU: 0.101 ratio
AAGCAACGCAAACUUGAAACAAUUCGUUAUCUUGCAGCCUCAGUGUUUUUACUUGCCGCGAUAGCAUUGGGGUUUUAUAGGUUCUGGAAGGAGAACUGACGAUGAUGCUGCCGCUGCUGC: 0.171 ratio
GUUGCCAGCUUCCGGUUCCGUUGGGCUCGGUUCUCUCAGUGCUACGUUGUCUCUACGCUCUCAAUCCCGGUUGGGUAAAACAUGGAUCAGGUAAUGCAGUUUGUGGAGCCCAGCCGGCAG: 0.105 ratio
GCAGGAUCUUCUAAGUACCAGUGGGACAUUAUGAAAUCCCUUGGGCUCUCUGAUGACGACAUAGUGAAGUUUUCUGAAGCAGAGCACUGGCUUGAUUAUUUCCCGCCACUGGCCGUUCAG: 0.135 ratio
UCAGAAGCUGUGCUGGGUCACUUUUCAUAUCCAGAUCCUUCACAGUGGACAGAUGAAGAACUGGGAAUCCCUCCUGAUGACGAGGACUGAAGGUGUAAACUCUCUGGACGAGUAGGAGCA: 0.466 ratio
CCCACGCCUCCUCUCCCACAGGCCCAAGAUAUAACCCACCAGUGCCUUUUGUCUUCCCGUUAGCUUUGUCAAUCACGCCUGUCCUCUCACGCCCACACCAAGUGCCCAAAGUGGGGAGGG: 15.6 ratio
GAUAAGAAAAGCUUGUUGGAGACCCGCUUGCACAUCACUGGCAGAGACCUGAGGUGUCAAAUAGCUGAAACUUUCGGAUUUCAAGAAAAUUACAUCAAGAUCGUAAUAAAUAAGAAACAG: 0.354 ratio
CUCAGAGAUGUGGCAUAUCAAUAUGUGAAAAAGGGGGCUCGUAUAUUUGUGGAAGGGAAAGUGGACUAUGGCGAGUACAUGGAUAAAAAUAAUGUGAGGCGGCAAGCAACAACAAUCAUA: 0.405 ratio
UCUUUAAAAAAAAAAUUACCUUUUCUGACAGUGCUUUCCCUCCCAUAGAUCCACGUUCAAGCUCAAAGAGCAAAGGCUCCGCAAACAGCUCAAACAUAAAAGAAAGAAAGAUUUCUGAGA: 0.738 ratio
UUAUCCAAGACUCAACGAAAGACUCCAACGGUUAUUCAUAAACAUUAUCAAAUUCAUCGCAUUAGACAUUUUUACAUGAGAAAAGUCAAAUUUACUCAACAGAAUUACCAUGACAGACUG: 9.44 ratio

Sample 2 — method: protein-binding microarray; molecule type: double-stranded DNA, one strand shown; medium: in vitro; concentration: 940 nM top; notes: 60-bp whole probe; together with: salmon DNA 0.4 mg/ml; baseline: random background probes; reading: higher = stronger binding; endpoint: fitted relative affinity; constant ends, left off below: GCCTAGCAC … GTCTTGATTCGCTTGACGCTGCTG
Target: Interferon regulatory factor 5, full length, phosphomimetic (IRF5, Homo sapiens, UniProt Q13568-2, residues 1-514, S451D/S453D/S456D/S462D)
GGCGGACTGCTACTGCTGACGTGCTAG: -1.04 z-score
TCATTTTTTTAATTGAAACTGTGCTAG: 0.542 z-score
GACGATTTCGGGTCTCGAGACGTGCTA: 0.814 z-score
GACGGACTGGACTATTGGGACGTGCTA: -0.481 z-score
GACGGAGTGGGTTTCGGGACGTGCTAG: 2.89 z-score
GACGGTCTCCTTCGCCTGACGTGCTAG: 0.149 z-score
TTAGGACTGGACTTTAGGTTAGTGCTA: -0.401 z-score
TTAGGTTTCCTACTGCTTTCGTGCTAG: 0.877 z-score
TCAGAACTGGGGTATCGATTAGTGCTA: 2.7 z-score
TTAGGTCTCAGTCTCGGTTAGTGCTAG: 3.79 z-score
TCTTATATACCTGTATATCTGTGCTAG: 0.371 z-score
TCATGCTTTCATTTATTACTGTGCTAG: 1.66 z-score
TCATTTTTCTCCTATTTAACTGTGCTA: 1.91 z-score
GACGGTTTCGGCTTTCGGGACGTGCTA: 8.89 z-score
GACGGACTGGGACTGGGGCCGTGCTAG: -0.399 z-score
TTAGGTTCCCTTTTACTTTAGTGCTAG: 0.736 z-score
TCACATTTTTTTATCAAACTGTGCTAG: 1.43 z-score
GACGGTATCGGTCTCTGGACGTGCTAG: 8.18 z-score
TTAGGTTTCCTATCCCTTTAGTGCTAG: 1.23 z-score
GACGGACTGCTTCTCCTGAGGTGCTAG: -0.0918 z-score
TTAGCACTGGGGTATCGATTAGTGCTA: 2.87 z-score
GACGATCTGAGTTTCGAGACGTGCTAG: 3.35 z-score
AACGATATCGGGTTTCGAGACGTGCTA: 2.02 z-score
CACTCTGTCCCTCTGTGACAGTGCTAG: 0.0996 z-score
GTCGGTCTCCTTTTCCTGACGTGCTAG: 1.89 z-score

Sample 3 — method: RNA Bind-n-Seq; molecule type: RNA; medium: in vitro; concentration: 200 nM; notes: whole 134-nt RNA, ends assumed; together with: 150 mM LiCl; baseline: input library; reading: higher = stronger binding; endpoint: log2 enrichment; library: 7-deaza-guanosine replaces G
Target: Ras GTPase-activating protein-binding protein 1, full length (G3BP1, Homo sapiens, UniProt Q13283)
Chain of UniProt Q13283 (whole entry, looked up): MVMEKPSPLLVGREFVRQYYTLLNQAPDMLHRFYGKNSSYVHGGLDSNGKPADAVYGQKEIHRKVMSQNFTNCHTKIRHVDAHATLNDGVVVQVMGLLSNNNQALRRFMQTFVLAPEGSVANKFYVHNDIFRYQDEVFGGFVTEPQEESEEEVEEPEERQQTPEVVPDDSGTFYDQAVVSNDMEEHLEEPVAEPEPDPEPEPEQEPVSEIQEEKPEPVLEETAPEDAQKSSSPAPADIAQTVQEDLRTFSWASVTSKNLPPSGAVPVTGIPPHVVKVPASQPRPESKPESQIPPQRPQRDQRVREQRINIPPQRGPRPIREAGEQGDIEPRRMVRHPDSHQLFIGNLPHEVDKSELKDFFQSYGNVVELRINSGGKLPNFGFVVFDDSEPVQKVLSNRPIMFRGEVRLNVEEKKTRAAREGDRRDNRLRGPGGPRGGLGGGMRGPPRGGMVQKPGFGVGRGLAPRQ
Constant ends, left off below: GGGAGUUCUACAGUCCGACGAUC … UGGAAUUCUCGGGUGUCAAGG
AAGUCCUGUGCUACACAUCGUAUGUACCGAAUCGGGGUUUGGGGUUUGGGUUUGGGAAAGUAUUAUGUUACGCCGUUCGGAUCUGCACUU: -0.416
CUCAAGUCCUGUGCUACACAUCGUAUGUACCGAAUCGGGAGGGGAGGGGAGGGGAAAGUAUUAUGUUACGCCGUUCGGAUCUGCACUUCC: 0.146
GUCCUGUGCUACACAUCGUAUGUACCGAAUCAAAUUUUUAAAUUUAAAUUUUUUUAAAAAAGUAUUAUGUUACGCCGUUCGGAUCUGCAC: -2.81
UCUAUGUAGCAUCCAGGUACUACUUCCUUUGGAAUGUCAGUAUUUAAUCUGAGCAAUGCGAUUGUGGGCAGUGGAAUCCUUGGGCUUUCU: -1.83
UAACUUUAGAGGAGGAUCUGAUGGAUAUGGCAGUGGACGUGGAUUUGGGGAUGGCUAUAAUGGGUAUGGAGGAGGACCUGGCGGUGGCAA: -0.0676
AGUCCUGUGCUACACAUCGUAUGUACCGAAUCAAACCCAAAUUUAAAUUUUUUUAAAAAAGUAUUAUGUUACGCCGUUCGGAUCUGCACU: -0.635
CAAGUCCUGUGCUACACAUCGUAUGUACCGAAUCGGGAGGGAAAAAGGGUUUGGGAAAGUAUUAUGUUACGCCGUUCGGAUCUGCACUUC: -1.06
UGUGCUACACAUCGUAUGUACCGAAUCGGGUUUUUUUGGGGUUUUUUUGGGGUUUUUUUGGGAAAGUAUUAUGUUACGCCGUUCGGAUCU: 1.73
ACCAUGCAGGUAGGCAUCUUUGGGAAGUGGGGCAAGGGGGGGAUAGGGAGGGGGGUAACACUUUGGGAACAGGUGGUCCCAGGUCGUUUC: 0.016
UGGGAGGUCGAUUUUGUUUAUUUUUUUAGCUCAUUUCCAGGGGUGGGAAUUUUUUUUUAAUAUGUGUCAUGAAUAAAGUUGUUUUUGAAA: 0.535
UCCUCAAGUCCUGUGCUACACAUCGUAUGUACCGAAUCGGCGGCGGGGCGGAAAGUAUUAUGUUACGCCGUUCGGAUCUGCACUUCCAGC: 0.766

Sample 4 — method: universal PBM; molecule type: double-stranded DNA, one strand shown; medium: in vitro; concentration: not given; reading: higher = stronger binding; endpoint: E-score
Target: Sal-like protein 4, full length isoform B (SALL4, Homo sapiens, UniProt Q9UJQ4-2, residues 1-616)
Notes: 8-mer, flanks averaged, mean of replicates
AGTCATCC: -0.138
AGTGCGCC: -0.273
ATTCGGGC: -0.195
ATATCGCC: 0.125
AAGATTTC: 0.0885
CGTCAAAA: 0.0993
ACGACTCT: 0.00459
GATCAATC: 0.0118
CTGAGTGC: -0.248
GATACCTA: 0.121
GTTGTTAA: 0.216
ATACGCAC: 0.0888
CCATGCGG: -0.268
ACTATTCG: 0.203
AAAGCCAT: 0.135
ATCACAAG: 0.108

Sample 5 — method: protein binding microarray; molecule type: double-stranded DNA, one strand shown; medium: in vitro; concentration: not given; baseline: not given; reading: higher = stronger binding; endpoint: E-score
Target: Histone acetyltransferase KAT6A, both winged helices, GST fusion (KAT6A, Homo sapiens, UniProt Q92794, residues 1-181)
Notes: 8-mer, flanks averaged, mean of 2 arrays, mostly near background
Residues (chain): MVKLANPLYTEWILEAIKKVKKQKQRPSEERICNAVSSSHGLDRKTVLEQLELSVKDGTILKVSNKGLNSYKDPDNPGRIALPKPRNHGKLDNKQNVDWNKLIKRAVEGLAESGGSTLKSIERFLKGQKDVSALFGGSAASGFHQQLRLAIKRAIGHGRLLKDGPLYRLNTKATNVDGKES
CGCGCAAG: 0.313
GTGTTCTA: 0.0557
GCTCTGTA: -0.115
CGTCACAA: 0.0984
CACCTCAG: -0.169
CCGTTACA: 0.177
ACAATGTA: -0.112
ACCGTCAC: 0.114
AGTGGTCC: -0.112
GGTCGTGA: -0.0596
ACGACAGC: -0.00179
AGACAGGC: -0.0399
ACGGAGCA: 0.0622
CTGGCTAC: -0.0448
TACGGCCA: 0.127
ACATCAAA: -0.206
CAAAGGAG: -0.221
CATTCTTC: -0.0878
CGCCCAGA: -0.0101
AGACTCCG: 0.0871
GCGGGCCC: 0.248
TCGGAGAA: 0.0706
GCAGTACC: -0.0685
CCGAACCG: 0.159

Sample 6 — target: CCNA1, cyclin fold, Cln2 fusion (human); method: yeast growth competition, sequencing; medium: yeast; notes: weak parent motif; baseline: not given; reading: higher = stronger binding; endpoint: normalised enrichment score
Starting sequence: MICAL3 docking peptide (human); LQLRRQLSFSEDS; partner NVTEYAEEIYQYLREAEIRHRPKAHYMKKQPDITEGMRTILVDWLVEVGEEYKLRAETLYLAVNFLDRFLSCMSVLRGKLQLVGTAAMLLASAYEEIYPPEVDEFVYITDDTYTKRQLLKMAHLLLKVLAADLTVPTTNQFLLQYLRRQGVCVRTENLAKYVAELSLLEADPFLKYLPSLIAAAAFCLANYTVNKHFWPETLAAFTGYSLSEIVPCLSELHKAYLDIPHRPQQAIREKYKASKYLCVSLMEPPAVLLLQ
LQLRVQLSFSEDS [R5V]: 0.387
LQLRRNLSFSEDS [Q6N]: -0.0952
LQWRRQLSFSEDS [L3W]: -0.135
LQLFRQLSFSEDS [R4F]: -0.0523
LQLRRQLSFSEKS [D12K]: 0.222
LQLRRQLSFSRDS [E11R]: 0.56
LQLRRQLSFSGDS [E11G]: 0.545
LQLRTQLSFSEDS [R5T]: 0.356
LQLRRQLSFKEDS [S10K]: 0.209
LQLRRALSFSEDS [Q6A]: 0.263
LQLSRQLSFSEDS [R4S]: 0.281
LQLRRQLSFSLDS [E11L]: 0.372
LQLRRQLSFSKDS [E11K]: 0.441
LQLRRQDSFSEDS [L7D]: -0.224
LQLRRQLAFSEDS [S8A]: 0.517
LDLRRQLSFSEDS [Q2D]: -0.0151
